Results collected from several papers.
Compare with care: the assays were run in different laboratories. ± gives the spread as reported.
Nuclear receptor subfamily 2 group C member 2 ligand-binding domain: Nuclear receptor subfamily 2 group C member 2, ligand-binding domain (Homo sapiens, UniProt P49116)
GRB7 SH2 domain: Growth factor receptor-bound protein 7, SH2 domain (GRB7, Homo sapiens, UniProt Q14451)

SMILES	target	test	conditions	Kd
CCC1=C[C@@H]2CN3CCc4c([nH]c5ccccc45)[C@@](C(=O)OC)(C2)[C@@H]13	Nuclear receptor subfamily 2 group C member 2 ligand-binding domain	SPR imaging		0.0818 nM
Cc1cn([C@H]2C[C@H](O)[C@@H](COP(=O)(O)OP(=O)(O)OP(=O)(O)O)O2)c(=O)[nH]c1=O	DNA polymerase I, Klenow fragment (polA, Escherichia coli, UniProt P00582, C907S/D424A/L744C/Y766F)	nucleotide incorporation, substrate, single-turnover rapid quench	with: radiolabelled primer-template DNA	41000 ± 4000 nM
CSCC[C@H](NC(=O)[C@H](CC(C)C)NC(=O)[C@H](C)NC(=O)[C@H](CCCNC(=N)N)NC(=O)[C@H](Cc1ccc(OP(=O)(O)O)cc1)NC(=O)[C@H](Cc1ccccc1)NC(=O)[C@H](CC(N)=O)NC(=O)[C@H](CO)NC(=O)[C@H](CC(=O)O)NC(=O)[C@@H](NC(=O)[C@@H]1CCCN1C(=O)[C@H](CO)NC(=O)[C@@H]1CCCN1C(=O)[C@H](CC(C)C)NC(=O)c1ccc2c(c1)C(=O)OC21c2ccc(N(C)C)cc2Oc2cc(N(C)C)ccc21)[C@@H](C)O)C(=O)N[C@@H](CC(=O)O)C(=O)N[C@@H](CCC(=O)O)C(=O)N[C@@H](CCC(=O)O)C(=O)N[C@@H](CC(=O)O)C(=O)O	GRB7 SH2 domain	binding		755 nM
N[C@@H](Cc1c[nH]c2ccccc12)C(=O)O	Transcription attenuation protein MtrB, Δ71 truncation (mtrB, Geobacillus stearothermophilus, UniProt Q9X6J6)	native mass spectrometry titration		3120 nM
CCCc1ccc(O)c(-c2cc(CCC)ccc2O)c1	E3 ubiquitin-protein ligase TRIM38 (TRIM38, Homo sapiens, UniProt O00635)			30500 nM
CC[C@H](C)[C@@H]1NC(=O)[C@H](Cc2ccc(O)cc2)NC(=O)CSC[C@@H](C(N)=O)NC(=O)CNC(=O)[C@H](Cc2c[nH]cn2)NC(=O)[C@H](CCCNC(=N)N)NC(=O)[C@H](CC(N)=O)NC(=O)[C@@H]2CCCN2C(=O)[C@H](Cc2ccccc2)NC(=O)[C@H]([C@@H](C)O)NC(=O)CNC(=O)[C@H](CC(C)C)NC(=O)[C@@H]2CCCN2C(=O)[C@H]([C@@H](C)O)NC(=O)[C@H](CCCCN)NC1=O	Vacuolar protein sorting-associated protein 29 (VPS29, Homo sapiens, UniProt Q9UBQ0)	ITC	25 °C	64 ± 5 nM
CSCC[C@H](NC(=O)[C@H](CC(=O)O)NC(=O)c1ccc2c(c1)C(=O)OC21c2ccc(N(C)C)cc2Oc2cc(N(C)C)ccc21)C(=O)N[C@@H](CO)C(=O)N[C@@H](CCCCN)C(=O)N[C@@H](CC(=O)O)C(=O)N[C@@H](CCC(=O)O)C(=O)N[C@@H](CO)C(=O)N[C@H](C(=O)N[C@@H](CC(=O)O)C(=O)N[C@@H](Cc1ccc(OP(=O)(O)O)cc1)C(=O)N[C@H](C(=O)N1CCC[C@H]1C(=O)N[C@@H](CCSC)C(=O)N[C@@H](CC(C)C)C(=O)N[C@@H](CC(=O)O)C(=O)N[C@@H](CCSC)C(=O)N[C@@H](CCCCN)C(=O)N[C@@H](CC(=O)O)C(=O)O)C(C)C)C(C)C	Tyrosine-protein kinase Lyn, SH2 domain (LYN, Homo sapiens, UniProt P07948)	binding		597 nM
CN(CC(=O)O)C(=N)NP(=O)(O)O	CKMT1A (Homo sapiens, UniProt P12532)	microscale thermophoresis	pH 8.5, wild type, no substrate	474000 ± 321000 nM
C[N+](C)(C)[C@@H](Cc1c[nH]c(=S)[nH]1)C(=O)[O-]	Ergothioneine transport permease/ergothioneine binding protein EgtU, substrate-binding domain (egtU, Helicobacter pylori, UniProt B5Z7I3)	binding, isothermal titration calorimetry	substrate-binding domain	2020 nM
CC(C)C[C@H](NC(=O)[C@@H](NC(=O)[C@H](CO)NC(=O)[C@H](CO)NC(=O)[C@@H](NC(=O)[C@H](CC(=O)O)NC(=O)[C@H](CC(C)C)NC(=O)[C@@H]1CCCN1C(=O)[C@H](CO)NC(=O)c1ccc2c(c1)C(=O)OC21c2ccc(N(C)C)cc2Oc2cc(N(C)C)ccc21)[C@@H](C)O)C(C)C)C(=O)N[C@@H](Cc1ccc(OP(=O)(O)O)cc1)C(=O)N[C@H](C(=O)N[C@@H](C)C(=O)N[C@H](C(=O)N[C@@H](CCC(N)=O)C(=O)N1CCC[C@H]1C(=O)N[C@@H](CC(N)=O)C(=O)N[C@@H](CCC(=O)O)C(=O)N[C@@H](CC(=O)O)C(=O)O)C(C)C)[C@@H](C)O	GRB7 SH2 domain	binding		579 nM
Nc1ccn([C@H]2C[C@H](O)[C@@H](COP(=O)(O)OP(=O)(O)OP(=O)(O)O)O2)c(=O)n1	DNA polymerase I, Klenow fragment (polA, Escherichia coli, UniProt P00582, C907S/D424A/L744C)	substrate, single-turnover chemical quench	with: dNTP	6600 nM
CC(C)C[C@H](NC(=O)[C@H](CCC(N)=O)NC(=O)[C@H](CC(C)C)NC(=O)[C@H](CC(C)C)NC(=O)[C@H](CO)NC(=O)[C@H](Cc1c[nH]cn1)NC(=O)[C@H](CC(C)C)NC(=O)[C@H](CC(=O)O)NC(=O)[C@H](CO)NC(=O)[C@H](CCC(=O)O)NC(=O)[C@H](Cc1ccccc1)NC(=O)[C@H](C)NC(=O)[C@H](Cc1ccccc1)NC(=O)[C@H](CCC(N)=O)NC(=O)[C@H](C)N)C(=O)N[C@@H](CCCCN)C(=O)N[C@@H](CCCCN)C(=O)N[C@@H](CCCCN)C(=O)N[C@@H](CCCCNC(=O)CCCCCNC(=S)Nc1ccc2c(c1)C(=O)OC21c2ccc(O)cc2Oc2cc(O)ccc21)C(N)=O	E3 ubiquitin-protein ligase XIAP, BIR1 domain (XIAP, Homo sapiens, UniProt P98170)	fluorescence polarization	BIR domain, with: FITC-labelled peptide 20 nM	no binding
CSCC[C@H](NC(=O)CNC(=O)[C@H](Cc1ccccc1)NC(=O)[C@H](CC(=O)O)NC(=O)CNC(=O)c1ccc2c(c1)C(=O)OC21c2ccc(N(C)C)cc2Oc2cc(N(C)C)ccc21)C(=O)N[C@@H](CO)C(=O)N[C@@H](CCCNC(=N)N)C(=O)N[C@@H](CC(=O)O)C(=O)N[C@H](C(=O)N[C@@H](Cc1ccc(OP(=O)(O)O)cc1)C(=O)N[C@@H](CO)C(=O)N[C@H](C(=O)N[C@@H](CC(=O)O)C(=O)N[C@@H](Cc1ccc(O)cc1)C(=O)N[C@@H](Cc1ccc(O)cc1)C(=O)N[C@@H](CCCNC(=N)N)C(=O)N[C@H](C(=O)N[C@@H](CC(=O)O)C(=O)O)C(C)C)[C@@H](C)O)C(C)C	Tyrosine-protein kinase JAK3, SH2 domain (JAK3, Homo sapiens, UniProt P52333)	binding		746 nM
O=S(=O)(F)Cc1ccccc1	Nuclear receptor subfamily 2 group C member 2 ligand-binding domain	SPR imaging		0.0897 nM
O=c1c(OS(=O)(=O)O)c(-c2ccc(O)c(O)c2)oc2cc(O)cc(O)c12	RPSA (Homo sapiens, UniProt P08865)	binding, tryptophan fluorescence quenching		190 ± 11 nM
C=C(C)[C@@H]1CC[C@]2(C(=O)NCCCCCCCC(=O)N(CCCC3(C)N=N3)CC(=O)O)CC[C@]3(C)C(CCC4[C@@]5(C)CC[C@H](O)C(C)(C)C5CC[C@]43C)C12 (stereo partly shown)	Envelope glycoprotein gp160, HR2 peptide (Human immunodeficiency virus type 1 group M subtype B, UniProt P03377)	binding		9600 nM
CC[C@H](C)[C@H](N)C(=O)O	livJ (Escherichia coli, UniProt P0AD96, Q172C)	fluorescence titration		200 nM
CC[C@H](C)[C@H](NC(=O)[C@H](Cc1ccc(OP(=O)(O)O)cc1)NC(=O)[C@H](CCC(=O)O)NC(=O)[C@@H]1CCCN1C(=O)[C@@H](NC(=O)[C@@H]1CCCN1C(=O)[C@H](CC(C)C)NC(=O)[C@H](Cc1ccccc1)NC(=O)[C@@H](NC(=O)[C@H](CC(=O)O)NC(=O)[C@H](CC(=O)O)NC(=O)c1ccc2c(c1)C(=O)OC21c2ccc(N(C)C)cc2Oc2cc(N(C)C)ccc21)[C@@H](C)O)C(C)C)C(=O)N[C@@H](CC(N)=O)C(=O)N[C@@H](CCC(N)=O)C(=O)N[C@@H](CO)C(=O)N[C@H](C(=O)N1CCC[C@H]1C(=O)N[C@@H](CCCCN)C(=O)N[C@@H](CC(=O)O)C(=O)O)C(C)C	Growth factor receptor-bound protein 10, SH2 domain (Homo sapiens, UniProt Q13322)	binding		1300 nM
CSCC[C@H](N)C(=O)N[C@@H](CCC(=O)O)C(=O)N[C@@H](CCCCN)C(=O)N1CCC[C@H]1C(=O)N[C@@H](CC(C)C)C(=O)N1CCC[C@H]1C(=O)N[C@@H](CC(C)C)C(=O)O	Stimulator of interferon genes protein, H232R; C-terminal domain (STING1, Homo sapiens, UniProt Q86WV6, H232R)	binding to CTD, microscale thermophoresis	5 min, pH 7.5, room temperature	10700 nM

For quick reference, copied from above:
SMILES	target	test	conditions	Kd
O=S(=O)(F)Cc1ccccc1	Nuclear receptor subfamily 2 group C member 2 ligand-binding domain	SPR imaging		0.0897 nM
CSCC[C@H](NC(=O)[C@H](CC(=O)O)NC(=O)c1ccc2c(c1)C(=O)OC21c2ccc(N(C)C)cc2Oc2cc(N(C)C)ccc21)C(=O)N[C@@H](CO)C(=O)N[C@@H](CCCCN)C(=O)N[C@@H](CC(=O)O)C(=O)N[C@@H](CCC(=O)O)C(=O)N[C@@H](CO)C(=O)N[C@H](C(=O)N[C@@H](CC(=O)O)C(=O)N[C@@H](Cc1ccc(OP(=O)(O)O)cc1)C(=O)N[C@H](C(=O)N1CCC[C@H]1C(=O)N[C@@H](CCSC)C(=O)N[C@@H](CC(C)C)C(=O)N[C@@H](CC(=O)O)C(=O)N[C@@H](CCSC)C(=O)N[C@@H](CCCCN)C(=O)N[C@@H](CC(=O)O)C(=O)O)C(C)C)C(C)C	Tyrosine-protein kinase Lyn, SH2 domain (LYN, Homo sapiens, UniProt P07948)	binding		597 nM
